Measured values gathered from unrelated publications.
Numbered parts are unrelated; each lists some results of a single study.

Study 1
Target: RING finger protein unkempt homolog, zinc fingers 1-6, GST-SBP tag (UNK, Homo sapiens, UniProt Q9C0B0, residues 30-357)
Technique: RNA Bind-n-Seq
Form: RNA
Matrix: in vitro
Concentration: not given
Setting: RNA with constant flanks, ends assumed
Reference: input RNA pool
Direction: higher = stronger binding
Constant ends, left off below: GGGAGUUCUACAGUCCGACGAUC … CAACAGAGGAUUGAGCAUCA
Residues (chain): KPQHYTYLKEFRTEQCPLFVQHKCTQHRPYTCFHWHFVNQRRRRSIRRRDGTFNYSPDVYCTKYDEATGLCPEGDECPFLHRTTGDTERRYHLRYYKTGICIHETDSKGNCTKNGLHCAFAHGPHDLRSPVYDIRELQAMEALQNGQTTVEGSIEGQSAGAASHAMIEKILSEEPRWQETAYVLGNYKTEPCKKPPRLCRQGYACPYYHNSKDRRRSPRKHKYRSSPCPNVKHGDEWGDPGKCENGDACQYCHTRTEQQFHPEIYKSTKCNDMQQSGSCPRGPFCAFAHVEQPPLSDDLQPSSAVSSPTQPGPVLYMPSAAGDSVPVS
| Sequence | bound/input enrichment |
| --- | --- |
| UGAAAAUGCUUUCGAGAGACUACUGGACAUUAUUUCAGAGGAGGGGAACAGUGAUGGAGGUACCGCCGUUGAAGAUUGUUUGAUUUUGCUCCAAAACUUAUUAAAAAACAACAACUCCAA | 0.307 ratio |
| GUGGCAUCAACAUCAAUGAACAGAGAAUCGUCUAGGUCUCAUGCCGUCUUUACAAUUACAACCGAGUCAAUGGAGAAAAGUAAUGAGAUUGUGAAUAUACGGACCUCCCUACUCAACCUG | 0.108 ratio |
| UUCACAAGAAUGUUUGCUGACCCUCAUGGCAAGAGAGUAUUCAGCAUGUUUUUGGAGACUCCCGUGGAUUUCAUACAAGUCCACAAAGAUGAUCUUCAAGAUUGGUUGUUUGUACUGCUG | 0.117 ratio |
| CGCUGCCGUGUGGGCCAAUGGGUGCGCAUGGAGAAUGUAACAGUGCUGGGUGAAGAUGUCACCGUUAAUGAUGAACUGUACCUCAAUGGAGCCAGCGUGCUGCCCCACAAGUCUAUCGGG | 0.114 ratio |
| CAUAAAGUUUGAUGUGCAGUUUCCUGAAAACAACUGGAUCAACCCAGACAAGCUUUCUGAACCCGAAGAUCUUCUGCCAUCUAGACCGGAAGUUCCUAACAUAAUUGGAGAAACAGAGGA | 0.131 ratio |
| CUGAGGGCUCCAUGCUGAAGGCUCCCAUUUUCAGUUCCCUCCUGCCCAGGACUGCAUUGUUUUCCCGCCCCGAGGUGGUGGCACGGGCCCUCCCUCCCAGCGCUCUGGGAGCCACGCCUA | 0.376 ratio |
| CUGCCCAAGAAGACCGAGAGCCACCACAAGGCCAAGGGCAAGUGAGGCCCCUACCGGUCGUCCGUGCGACUUUUACAGACACCAAAGGCUCUUUUCAGAGCCACCCACAACCUCAUUAGA | 0.284 ratio |
| UCCUGUGUUAGGGGGGGUCUGGCUUUUUCUGGAGGUAACUAGGGUGAUGAAAACGUAUCCUCCGGCGUGGUUAUGGCCGUCUUGGCCACCUGUACACCACUUGCCAAUGCAAGGACUUGU | 0.961 ratio |
| GUGUGCAAAAGCAAGAAGUCUUGGCAAGCGAGGCACACUGGUAUUAAGAUUGUACAACAGACCGCCAUUCUCAUGGGCUGUGCUAUCUUGCCACAUCUCAGAAGUUUGGUUGAAAUCAUU | 0.0557 ratio |
| GGGCUGCAGACAUGUAGGAUGGAGUGAGGUGUGUUUCCUGUCACCCUCCACUCCCCAGCUUCCGUUUCAUAAAUGUAGUUUUAGAUCCCUCACUGCUUGGUUCCCAAAGCCUUAUUACUG | 2 ratio |
| AAGCAUGAGUAUCAAGCAAAUGGGCCAGAAGACCUCAAUCGGACCUGUAUUGCUGAAAAGCCCGGUGGCUCCUUAAUUGUAGCCUUUGAAGGAUCCCCUGUGUAGACCGCCAGUCAGUGC | 0.136 ratio |

Study 2
Target: Fragile X messenger ribonucleoprotein 1, C-terminal low-complexity region (Fmr1, Mus musculus, UniProt P35922)
Technique: RNA Bind-n-Seq
Form: RNA
Matrix: in vitro
Concentration: 200 nM
Setting: whole 134-nt RNA, ends assumed
Added: 150 mM LiCl
Reference: input library
Direction: higher = stronger binding
All molecules: 7-deaza-guanosine replaces G
Constant ends, left off below: GGGAGUUCUACAGUCCGACGAUC … UGGAAUUCUCGGGUGUCAAGG
| Sequence | log2 enrichment |
| --- | --- |
| ACCAUGCAGGUGGGCAUCUUGGGGAAGUGGGGCAAGGGGGGGAUAGGGAGGGGGGUAACACUUUGGGAACAGGUGGUCCCAGGUCGUUUC | 1.5 |
| UGGGAGGUGGAUUUUGUUUAUUUUUUUAACUCAUUUCCAGGGGUGGGAAUUUUUUUUUAAUAUGUGUCAUGAAUAAAGUUGUUUUUGAAA | -0.389 |
| ACCAUGCAGGUGGGCAUCUUUGGGAAGUGGGGCAAGGGGGGGAUAGGGAGGGAAAUAACACUUUGGGAACAGGUGGUCCCAGGUCGUUUC | 0.76 |
| GCAGGAAGUAAAAACAAAUGGAAAUGCUUCGGAUAGUGGCUGGGGUGGGGGUUGCUAAGGAAAGGGUGGGAUGGGAGUGGGUAAAGAGUU | 1.76 |
| UCCUAGUCCUAGGAAAACUCCAGUUGCCAGUGAUCAACGCCGUAGGUCCUGCAAAACAGCCCCUGCUUCCAGCAGCAAAUCUCAGACAGA | -0.316 |
| ACCAUGCAGGUGGGCAUCUUUGGGAAGUGGGGCAAGGGGGGGAUAGGGAGGGGGGUAACACUGUGGGAACAGGUGGUCCCAGGUCGUUUC | 1.68 |
| CCUGUGCUACACAUCGUAUGUACCGAAUCAAACCCCCCCAAAUUUUUUUAAACCCCCAAAAAAGUAUUAUGUUACGCCGUUCGGAUCUGC | 1.61 |
| UCCUGUGCUACACAUCGUAUGUACCGAAUCGGGGAAAAAAAGGGGUGGGGAAAAAGGGGAAAGUAUUAUGUUACGCCGUUCGGAUCUGCA | -1.96 |
| UCCUGUGCUACACAUCGUAUGUACCGAAUCGGGGAAAGGGGUUUGGGGAAAAAAAGGGGAAAGUAUUAUGUUACGCCGUUCGGAUCUGCA | -1.53 |
| CAAGUCCUGUGCUACACAUCGUAUGUACCGAAUCGGGAAAAGGAAAAGGAAAAGGGAAAGUAUUAUGUUACGCCGUUCGGAUCUGCACUU | -1.38 |
| UCAAGUCCUGUGCUACACAUCGUAUGUACCGAAUCGGGAGGGUUUUUGGGAGGGAAAGUAUUAUGUUACGCCGUUCGGAUCUGCACUUCC | -0.875 |

Study 3
Target: RNA binding protein fox-1 homolog 2, RRM domain, GST-SBP tag (RBFOX2, Homo sapiens, UniProt O43251-10, residues 100-194)
Technique: RNA Bind-n-Seq
Form: RNA
Matrix: in vitro
Concentration: 365 nM
Setting: natural RNA segment, single round, ends assumed
Reference: no-protein control
Direction: higher = stronger binding
Constant ends, left off below: GGGAGUUCUACAGUCCGACGAUC … UGGAAUUCUCGGGUGCCAA
Residues (chain): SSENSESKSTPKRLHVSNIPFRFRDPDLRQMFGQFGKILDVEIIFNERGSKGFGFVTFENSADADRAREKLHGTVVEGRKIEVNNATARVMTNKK
| Sequence | RBNS enrichment (R) |
| --- | --- |
| AAUUCAACCACUCUCCUAAAAUGGUGUUUAAAUAUUUUGUAGGGCAGAAUAUGCAUAUUGCCUGUUAGCAAGUAAUAAUUCAUUCUCAUAGAGAAAUGGGUUUUUACCCA | 0.689 |
| GGUGUUCUUAGGUAAUGGGUUGUAGAUACUGAGUCUUCCUUUCCUUUUCUGACCCUUCUCGAGGACAUUUGCUUUCCUCACACUUUUGUAGUCUCUCUUUACAUAUUACU | 0.979 |
| UUAAACUGGCAUAUAGAAAAAAAGGAGGAUUUUUCUGCAUUGUAAAAUAAUCAGUAUGGUUUAUAUGUUGAAUUUGACAUUUGUGUGUAAUUUCAUGGUGGCCUAGUGUU | 1.22 |
| ACCAAAUCUCAGUUGUUUGCUUCUUGCCAUCACUGGUCCAGGUCUUCAGUUUCCGAAUCUCUUUCCCUUCCCCUGUGGUCUAUUGUCGCUAUGUGACUUGCGCUUAAUCC | 0.457 |
| CUUUCUUUCUAACCUUGUUCAGAUUGAGGUGAAAAGUCCAUCUUGCUGAUUUGAUGAUUGAAAUGUGAAAGUGAAGUGGAAGGAAUGAAUGAAGUGUGUUUUUUUUUUCU | 1.48 |
| GUACAAGCCUCGACAGACACGUUCUGUCAGCACUUGCCCCGGCCACCUCAUUCUGGUUUCAGUGUUACUUGUGCGCAUGUGUGUGUGUGUCUGCAGAUGGAAAUCAUUCC | 0.416 |
| CAACAGAAUGUCCGACAGCAUCCUUUAAAACUUAAAGAGAAAGACAACUUUGCAGAAAGAGACACAGCUGGCUCUCUGCAGUGGUGUCCUCUCUGUUGCGUGUGUCGAGA | 0.461 |
| CAGAGCGCCUCUCUGGCACCACAGCAGGGAUCGUCAGGUAAUAAACACUCUUGAUUCCCUGAGGAAAUAUCGGUCCCUUUGUCUUGGGCAGAGCAGUCUUAUGAAGCUGG | 0.307 |
| UGGGGAGCCCGCAGGCCUAUGUGGCAGCGUCACCACAGGAGUUGUGGGCCUAGGAGAGGCUUUGGACCUGGGAGCCACACCUAGGAGCAAAGUCUCACCCCUUUGUCUAC | 0.283 |
| AAUCAAGUGGACACACUUUUGAUGUAUUUCUCAGUUACAAAGCUGACUUUUUUUUAAUGAAGGGAAUAAUUGCCAAGUACUUAAAUCUACCUGAGGUACACUUUUAAACC | 0.54 |
| AGAUAAAAUAUAUAUCCAAAAUAAUUUUGUGAGUUAUUUUCCUUCUGGCAUUUAAUACCUACAUGAUUUGUGAGCUACUUCUGCCUUCUCCUUCUCUGCUCUUAAACCUG | 0.558 |
| AUCCAUUGCUCAAUGGUACAGAGUGUGGGGUCAGUCCACCACCCUUGACCUCCCGGCAGGGCAAGGUGAGGAGGCGGACCCAAAGCAGUACCAGCAGGACUUGUUGCCAG | 0.378 |

Study 4
Target: Histone acetyltransferase KAT6A, both winged helices, GST fusion (KAT6A, Homo sapiens, UniProt Q92794, residues 1-181)
Technique: protein binding microarray
Form: double-stranded DNA, one strand shown
Matrix: in vitro
Concentration: not given
Setting: 8-mer, flanks averaged, mean of 2 arrays, mostly near background
Reference: not given
Direction: higher = stronger binding
Construct (chain): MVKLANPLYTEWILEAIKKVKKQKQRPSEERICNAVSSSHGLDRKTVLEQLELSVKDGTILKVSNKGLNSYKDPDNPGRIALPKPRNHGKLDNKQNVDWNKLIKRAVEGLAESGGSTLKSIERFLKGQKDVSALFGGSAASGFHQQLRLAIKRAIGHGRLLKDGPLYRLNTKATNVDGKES
| Sequence | E-score |
| --- | --- |
| ACCCGTTC | 0.152 |
| CTGCGTGA | 0.096 |
| CATTATTA | -0.0213 |
| AGCTGGTG | -0.141 |
| CCCTAAAG | -0.0824 |
| CATTGTAG | -0.151 |
| GGTGGAAA | -0.0861 |
| AAAGGGGG | -0.25 |
| AGTTAGAC | -0.0354 |
| GATTCAGC | 0.0957 |
| GATCATAA | -0.0356 |
| AACCCTTC | -0.0887 |
| CACCCAGC | -0.0663 |
| CATTAATG | -0.0802 |
| CGTAACAA | -0.0308 |
| ACAAGTCT | -0.127 |
| GCTCCTGA | 0.00254 |

Some of these lines once more (study 1):
| Sequence | bound/input enrichment |
| --- | --- |
| GGGCUGCAGACAUGUAGGAUGGAGUGAGGUGUGUUUCCUGUCACCCUCCACUCCCCAGCUUCCGUUUCAUAAAUGUAGUUUUAGAUCCCUCACUGCUUGGUUCCCAAAGCCUUAUUACUG | 2 ratio |
| UUCACAAGAAUGUUUGCUGACCCUCAUGGCAAGAGAGUAUUCAGCAUGUUUUUGGAGACUCCCGUGGAUUUCAUACAAGUCCACAAAGAUGAUCUUCAAGAUUGGUUGUUUGUACUGCUG | 0.117 ratio |
| CGCUGCCGUGUGGGCCAAUGGGUGCGCAUGGAGAAUGUAACAGUGCUGGGUGAAGAUGUCACCGUUAAUGAUGAACUGUACCUCAAUGGAGCCAGCGUGCUGCCCCACAAGUCUAUCGGG | 0.114 ratio |
| AAGCAUGAGUAUCAAGCAAAUGGGCCAGAAGACCUCAAUCGGACCUGUAUUGCUGAAAAGCCCGGUGGCUCCUUAAUUGUAGCCUUUGAAGGAUCCCCUGUGUAGACCGCCAGUCAGUGC | 0.136 ratio |
| UCCUGUGUUAGGGGGGGUCUGGCUUUUUCUGGAGGUAACUAGGGUGAUGAAAACGUAUCCUCCGGCGUGGUUAUGGCCGUCUUGGCCACCUGUACACCACUUGCCAAUGCAAGGACUUGU | 0.961 ratio |
| GUGGCAUCAACAUCAAUGAACAGAGAAUCGUCUAGGUCUCAUGCCGUCUUUACAAUUACAACCGAGUCAAUGGAGAAAAGUAAUGAGAUUGUGAAUAUACGGACCUCCCUACUCAACCUG | 0.108 ratio |
| GUGUGCAAAAGCAAGAAGUCUUGGCAAGCGAGGCACACUGGUAUUAAGAUUGUACAACAGACCGCCAUUCUCAUGGGCUGUGCUAUCUUGCCACAUCUCAGAAGUUUGGUUGAAAUCAUU | 0.0557 ratio |
| CUGAGGGCUCCAUGCUGAAGGCUCCCAUUUUCAGUUCCCUCCUGCCCAGGACUGCAUUGUUUUCCCGCCCCGAGGUGGUGGCACGGGCCCUCCCUCCCAGCGCUCUGGGAGCCACGCCUA | 0.376 ratio |
